Measured values gathered from unrelated publications.
Compare with care: the assays were run in different laboratories. Several values in a cell are separate wells, animals, samples, runs or records.
Target: Epithelial discoidin domain-containing receptor 1 (DDR1, Homo sapiens, UniProt Q08345)
Chain of UniProt Q08345 (whole entry, unmodified, looked up): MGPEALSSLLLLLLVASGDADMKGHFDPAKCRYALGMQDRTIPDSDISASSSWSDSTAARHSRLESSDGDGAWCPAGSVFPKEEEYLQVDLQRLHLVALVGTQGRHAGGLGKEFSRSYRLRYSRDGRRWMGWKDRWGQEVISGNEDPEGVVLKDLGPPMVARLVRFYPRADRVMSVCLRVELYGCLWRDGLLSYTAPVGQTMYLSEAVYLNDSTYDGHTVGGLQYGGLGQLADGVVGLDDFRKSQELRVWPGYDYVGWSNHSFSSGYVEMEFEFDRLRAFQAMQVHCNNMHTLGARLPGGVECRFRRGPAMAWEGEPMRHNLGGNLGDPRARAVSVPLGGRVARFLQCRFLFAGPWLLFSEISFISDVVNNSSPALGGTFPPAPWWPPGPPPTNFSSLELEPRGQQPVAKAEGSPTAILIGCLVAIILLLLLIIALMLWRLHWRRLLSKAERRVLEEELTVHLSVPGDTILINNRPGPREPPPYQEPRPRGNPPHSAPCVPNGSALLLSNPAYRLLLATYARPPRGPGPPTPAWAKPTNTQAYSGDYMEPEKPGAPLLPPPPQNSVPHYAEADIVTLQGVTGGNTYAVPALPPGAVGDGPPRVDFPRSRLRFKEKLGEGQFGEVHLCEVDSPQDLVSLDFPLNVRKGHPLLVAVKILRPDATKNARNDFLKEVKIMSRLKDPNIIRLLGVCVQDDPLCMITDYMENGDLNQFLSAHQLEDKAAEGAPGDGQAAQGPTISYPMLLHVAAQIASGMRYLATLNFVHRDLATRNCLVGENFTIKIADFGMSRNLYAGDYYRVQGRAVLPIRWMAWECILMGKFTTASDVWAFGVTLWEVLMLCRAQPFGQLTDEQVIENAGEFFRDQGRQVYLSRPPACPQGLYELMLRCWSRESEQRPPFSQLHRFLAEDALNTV

SMILES | test | test system | conditions | how to read | measurement | result
C=CC(=O)N1CCc2ccc(-n3c(=O)ccc4cnc5ccc(-c6cnn(C)c6)cc5c43)cc21 | KINOMEscan |  | 1 µM | relative to: DMSO control | remaining binding | 100%
O=C(Cc1ccc(OCc2ccccc2)cc1)NC1(C(=O)O)CCN(C(=O)c2ccc(-c3cccc(Cl)c3)cc2)CC1 | enzyme activity, inhibitor |  | 10 µM |  | activity vs control | 93%
NC(=O)[C@@H](O)C[C@H]1CCc2sc3ncnc(O[C@H]4CC[C@H](N5CCOCC5)CC4)c3c21 | enzyme activity, inhibitor |  | 10 µM |  | inhibition | 63%
C=CC(=O)N1CCCC(n2c(=O)c3ncccc3n(Cc3ccc(Oc4ccccc4)cc3)c2=O)C1 (centres unmarked) | cell-free assay, competition with immobilised ligand |  | 1 µM |  | remaining binding | 90%
Cc1cccc(O[C@H]2CCC[C@@H](C(C)CNCc3ccncc3)C2)c1 (relative stereo) | cell-free assay |  | 1 µM |  | inhibition | 0%
Cc1ccc(-c2c(/C=C(\C#N)C(=O)NC(C)C)n(CCCO)c3ncnc(N)c23)cc1 | cell-free assay, competition with immobilised ligand |  | 1 µM |  | remaining binding | 57%
C[C@H]1CN(C(=O)c2cn(-c3ccnc(N)n3)c3cc(C#CC4(O)CCCCC4)ccc23)CCN1 | cell-free assay, TR-FRET |  | 1 µM |  | inhibition | 1%
CN1CCN(Cc2ccc(-c3ccc(CO[C@H]4CCC[C@@H]4NC(=O)c4cc(-c5cnn(C)c5)cnc4N)cc3)cc2)CC1 | enzyme activity, inhibitor |  | 0.1 µM |  | inhibition | -5%
CN1CC[C@@H](COc2cnc(C#N)cc2-c2ccn3nc(NC(=O)C4CC4)cc3c2)C1 | enzyme activity, inhibitor |  | 1 µM |  | inhibition | 54%
COc1cc(Nc2nc(C)cc(-c3cnn4nc(OC)ccc34)n2)cc(C(F)(F)F)c1 | inhibitor |  | 1 µM | relative to: control | remaining activity | 99%
O=C(Nc1ccc(Oc2ncnc3[nH]cc(-c4ccccc4)c23)c(F)c1)c1c2n(n(-c3cc(F)ccc3F)c1=O)CCCC2 | enzyme activity, inhibitor |  | 0.5 µM |  | inhibition | 40%
N[C@H]1CC[C@H](Nc2nccc(-c3cccnc3Oc3ccc(NC(=O)NC4CC4)c4ccccc34)n2)CC1 | kinobead competition pulldown | HEK293/HCT116 lysate mixture | 10 µM, 1 h, 4 °C | lower = stronger competition | log2 LFQ intensity | 19.3 and 21.1 and 20.3 and 18.2
CCN1CCN(Cc2ccc(C(=O)Nc3ccc(C)c(NCc4cnc5[nH]ccc5c4OC)c3)cc2C(F)(F)F)CC1 | binding, competition with immobilised ligand |  | 1 µM |  | remaining binding | 0.15%
CNC(=O)C1CCN(c2cc(C)c(F)cc2NC(=O)c2ccc(-c3cc(O)ccc3C)c(C)c2)CC1 | binding, competition with immobilised ligand |  | 1 µM |  | remaining binding | 57%
